Published values collected from several papers.
Lines come from different studies, so protocols differ. ± gives the spread as reported.

SMILES	test	test system	setting	scale	measurement	result
CCCC[C@H](NC(=O)CNC(=O)CNC(=O)CN1CCN(CC(=O)O)CCN(CC(=O)O)CCN(CC(=O)O)CC1)C(=O)N[C@H]1CC(=O)NCCCC[C@@H](C(N)=O)NC(=O)[C@H](Cc2c[nH]c3ccccc23)NC(=O)[C@H](CCCNC(=N)N)NC(=O)[C@@H](Cc2ccccc2)NC(=O)[C@H](Cc2c[nH]cn2)NC1=O [gallium-67 labelled]		female C57 mice, B16/F1 melanoma	intravenous, 0.037 MBq, 2 h	reference: tumour over muscle	tumour to tissue ratio	76
COC(=O)c1ccc(-c2cn(Cc3cc(Cl)ccc3O[11CH3])nn2)cc1	PET, one-tissue compartment model	rhesus monkey, brain NAc	dose not given		distribution volume	0.684 mL/cm³
COc1cc2c(cc1OC)CN(CCCCn1ccc3cc(OCC[18F])ccc31)C2		mouse serum	2 h, 37 °C		radiochemical purity	> 99%
CC(C)(F)CC(NC(c1ccc(-c2ccc(S(C)(=O)=O)cc2)cc1)C(F)(F)F)C(=O)NCC#N (stereo not drawn)	LC-MS UV trace	aqueous buffer	23 h, pH 7.5, 37 °C, together with: GSH 5 mM		GSH adduct formation	< 1%
CCc1cc(C)n2nc(-c3ccc(OCC[18F])cc3)c(CC(=O)N(CC)CC)c2n1		rat, plasma	60 min		parent radioligand in plasma	46.6%
COc1ccc(S(=O)(=O)N/N=C/c2ccc(C#N)cc2)cc1OC		buffer	pH 2, 37 °C		chemical stability	unstable
CCCC(CCC(=O)O)NC(=O)c1ccc2c(c1)OCO2 (stereo not drawn)		female Sprague-Dawley rats, plasma	oral, 50 mg/kg of parent drug	reference: 50 over 20 mg/kg dose	AUC(0-last) ratio	2.59
CCOP(=O)(CC(=O)Nc1ccc(S(=O)(=O)N(CC(N)=O)c2ccc(N(CC(N)=O)S(=O)(=O)c3ccc(OC)cc3)c3ccccc23)cc1)OCC	HE staining	APP/PS1 mice, heart, liver, lung, spleen, kidney	40 mg/kg, 2 months		organ histopathology	no effect
Cc1ccc(/N=N/c2c(O)ccc3ccccc23)c(C)c1		Sprague-Dawley rats both sexes, whole blood	oral, 50 mg/kg		MRT(0-inf)	2.61 h
CCCCCCCCCCCCCCCC(=O)N[C@@H](CCCCN)C(=O)N[C@H](C(=O)N[C@H](C(=O)N[C@@H](CCCCN)C(=O)N[C@@H](CO)C(=O)O)[C@@H](C)O)[C@@H](C)O		hairless mouse, skin, Franz cell	50 µg/cm^2 applied, 24 h		percent of applied dose in dermis	0.6%
Cc1cc2c(cc1C1(c3ncc(C(=O)O)cn3)CC1)C(C)(C)CCC2(C)C		Sprague-Dawley rat, male, plasma	oral, 100 mg/kg, 3 h, sesame oil vehicle		LDL level	15 ± 4.5 mg/dL
Cc1ccc(-c2ccc(-c3cc4sccc4o3)cn2)nc1		DMSO	together with: quinine bisulfate reference		fluorescence quantum yield	0.76
CC(C)CCCC(C)CCCC(C)CCO[C@@H]1O[C@H](CO)[C@@H](O[C@H]2O[C@H](CO)[C@@H](O)[C@H](O)[C@H]2O)[C@H](O)[C@H]1O (stereo partly drawn)	dynamic surface tension		0.0018 mmol/L		equilibrium surface tension	47 mN/m
C[C@H](NC(=O)[C@H](C)NC(=O)[C@H](CCCNC(=N)N)NC(=O)[C@H](CCCNC(=N)N)NC(=O)[C@H](CCCNC(=N)N)NC(=O)[C@H](C)NC(=O)[C@H](C)NC(=O)[C@H](CCCNC(=N)N)NC(=O)[C@H](CCCNC(=N)N)NC(=O)[C@H](CCCNC(=N)N)NC(=O)[C@H](CCCNC(=N)N)NC(=O)c1ccc2c(c1)C(=O)OC21c2ccc(O)cc2Oc2cc(O)ccc21)C(=O)N[C@@H](CCCNC(=N)N)C(=O)N[C@@H](CCCNC(=N)N)C(=O)N[C@@H](CCCNC(=N)N)C(=O)N[C@@H](C)C(=O)N[C@@H](C)C(=O)N[C@@H](CCCNC(=N)N)C(=O)N[C@@H](CCCNC(=N)N)C(=O)N[C@@H](CCCNC(=N)N)C(=O)N[C@@H](CCCNC(=N)N)C(=O)O		bovine cartilage, 90% GAG depleted	concentration not given	reference: healthy cartilage	uptake reduction	> 50%
CC(C)C[C@H](NC(=O)C[C@H](O)[C@H](CC(C)C)NC(=O)[C@H](Cc1c[nH]cn1)NC(=O)CNC(=O)[C@@H](NC(=O)[C@H](C)NC(=O)[C@H](Cc1c[nH]c2ccccc12)NC(=O)[C@H](CCC(N)=O)NC(=O)[C@@H](Cc1ccccc1)NC(=O)CCNC(=O)CCNC(=O)CN1CCN(CC(=O)O)CCN(CC(=O)O)CCN(CC(=O)O)CC1)C(C)C)C(N)=O [lutetium-177 labelled]	MIRD	mouse PC-3 xenograft, pancreas	intraperitoneal, 50 MBq, without PA		absorbed dose	4.4 Gy
CC/C=C\C/C=C\C/C=C\C/C=C\C/C=C\CCCCOC(CC)C(=O)O (stereo not drawn)	radioactivity, 14C-labelled	Wistar rat, male, kidney medulla	oral, 100 mg/kg, 3 days		tissue concentration	0.5 µg equivalents/g tissue
CC[C@H](C)[C@H](NC(=O)[C@H](C)NC(=O)[C@H](CC(N)=O)NC(=O)[C@H](CCCNC(=N)N)NC(=O)[C@H](CCCNC(=N)N)NC(=O)[C@H](CC(N)=O)NC(=O)[C@H](CCCNC(=N)N)NC(=O)[C@H](CCCNC(=N)N)NC(=O)[C@H](C)NC(=O)[C@@H](NC(=O)[C@H](CC(C)C)NC(=O)[C@@H](NC(=O)[C@@H](NC(=O)[C@H](CS)NC(=O)[C@H](CCCCN)NC(=O)[C@@H](N)CCCNC(=N)N)C(C)C)[C@@H](C)CC)C(C)C)C(=O)N[C@H](C(=O)N[C@H](C(=O)N[C@@H](CC(C)C)C(=O)N[C@@H](CS)C(=O)N[C@@H](CCCNC(=N)N)C(=O)O)[C@@H](C)CC)C(C)C	LC-MS	PBS	0.1 mg/mL		single disulfide form	34%

SMILES	test	test system	setting	scale	measurement	result
CC(C)c1cnc(-c2cc(Cl)ccc2F)cc1Nc1ccncc1C(=O)NC(CO)CO	monotherapy, item: headache	human patients	oral, dose not given, grade 2, phase I A		patients with treatment-related adverse event	2.4%
O=C(O)C1CN(Cc2ccc(-c3noc(-c4ccc(OCC[18F])c(C(F)(F)F)c4)n3)cc2)C1		male Sprague-Dawley rat, muscle	intravenous, 30 min		tissue uptake	0.145 ± 0.013 %ID/g
NC1CC=C(c2cc3c(Nc4cc5ncsc5cc4F)ncnc3s2)CC1 (stereo not drawn)		human liver microsomes	1 µM		intrinsic clearance	< 12 mL/min/g protein
O=C(O)C1OC(OC2C(COS(=O)(=O)O)OC(OC3C(C(=O)O)OC(OC4C(COS(=O)(=O)O)OC(OC5C(C(=O)O)OC(OC6C(COS(=O)(=O)O)OC(OC7C(C(=O)O)OC(OC8C(COS(=O)(=O)O)OC(OC9C(C(=O)O)OC(OC%10C(COS(=O)(=O)O)OC(OC%11C(C(=O)O)OC(Oc%12ccc([N+](=O)[O-])cc%12)C(O)C%11O)C(NS(=O)(=O)O)C%10O)C(OS(=O)(=O)O)C9O)C(NS(=O)(=O)O)C8O)C(OS(=O)(=O)O)C7O)C(NS(=O)(=O)O)C6O)C(OS(=O)(=O)O)C5O)C(NS(=O)(=O)O)C4O)C(OS(=O)(=O)O)C3O)C(NS(=O)(=O)O)C2OS(=O)(=O)O)C(O)C(O)C1OC1OC(COS(=O)(=O)O)C(O)C(O)C1NS(=O)(=O)O (stereo not drawn)		rats	intravenous, 3600 µg/kg/day for 7 days, day 8		adrenal to body weight ratio	0.02 ± 0.004
C[C@H](Nc1nc(-c2cnccn2)nc(Cl)c1-c1c(F)cc(F)cc1F)C(F)(F)F		CD1 mouse	intraperitoneal, 5 mg/kg, 16 h		brain/plasma unbound AUC ratio	1.7 ± 0.6
N#CCc1cccc(Cl)c1-c1ccc2[nH][11c](=O)[nH]c2c1		mice, brain homogenate	dose not given, 30 min		unchanged tracer fraction	65%
CC(C)(O)c1ncc([S@](N)(=O)=NC(=O)Nc2c3c(cc4c2CCC4)CCC3)s1		healthy human subjects, plasma	oral, 100 mg, fasted, tablet	reference: crystalline suspension	Cmax relative to suspension	78%
Cn1c(=O)oc2ccc(-c3ccc(CC(C#N)NC(=O)C4CNCCCO4)c(F)c3)cc21 (stereo not drawn)		human	oral, 10 mg once daily, TEAE, multiple ascending dose		skin exfoliation incidence	0%
COC(=O)C1OC(Oc2c(-c3ccccc3)oc3cc(O)c(O)c(O)c3c2=O)C(O)C(O)C1O (stereo not drawn)		BALB/c mouse, thymus	5 mg/kg		organ weight	0.19 ± 0.02 g
CC(C)C[C@@H](NC(=O)[C@H](NC(=O)[C@H]1CCCN1)[C@H](C)O)C(=O)N[C@H](Cc1c[nH]cn1)C(=O)N[C@@H](C(=O)N[C@H](Cc1c[nH]cn1)C(=O)N[C@H](CC(N)=O)C(=O)N[C@H](CCCNC(=N)N)C(=O)N[C@H](CCCNC(=N)N)C(=O)N[C@H](CCCNC(=N)N)C(=O)N[C@H](CCCNC(=N)N)C(=O)N[C@H](CCCNC(=N)N)C(N)=O)[C@H](C)O		Beagle dog, CSF	oral, 20 mg/kg		MRT(0-inf)	155 ± 131 h
CC(=O)c1cnc(N)nc1N1CC[C@H]1c1nn2ccc(Cl)c2c(=O)n1-c1ccccc1		female Wistar rat	oral, 2 h, anti-IgD B cell activation		plasma concentration at ED50	0.048 to 0.134 µM
CC[C@H](C)[C@H](NC(=O)[C@H](CC(C)C)NC(=O)[C@H](Cc1c[nH]c2ccccc12)NC(=O)[C@H](C)NC(=O)[C@@H](NC(=O)[C@H](Cc1ccccc1)NC(=O)[C@H](CC(=O)O)NC(=O)[C@H](CCCNC(=N)N)NC(=O)[C@H](C)NC(=O)[C@H](C)NC(=O)[C@H](CC(C)C)NC(=O)[C@H](C)NC(=O)[C@H](CC(=O)O)NC(=O)[C@H](CC(C)C)NC(=O)[C@@H](NC(=O)[C@@H](NC(=O)[C@H](C)NC(=O)[C@H](CC(C)C)NC(=O)[C@H](CCC(=O)O)NC(=O)[C@H](CO)NC(=O)[C@H](CO)NC(=O)[C@H](Cc1ccccc1)NC(=O)[C@@H](NC(=O)CNC(=O)[C@H](CCC(=O)O)NC(=O)CNC(=O)[C@@H](N)Cc1c[nH]cn1)[C@@H](C)O)[C@@H](C)O)[C@@H](C)CC)[C@@H](C)CC)C(=O)N[C@@H](C)C(=O)N[C@H](C(=O)N[C@@H](CCCCN)C(=O)N[C@H](C(=O)N[C@H](C(=O)N[C@@H](CC(=O)O)C(=O)N[C@@H](CCCCN)C(=O)N[C@@H](CCCCN)C(=O)O)[C@@H](C)O)[C@@H](C)CC)[C@@H](C)O	immunoaffinity LC-MS/MS	healthy human subjects, plasma	intravenous infusion, 1 mg single dose, infused over 15 min		AUCinf	1.01 nM·h
CC(=O)N([O-])CCCCCNC(=O)CCC(=O)N([O-])CCCCCNC(=O)CCC(=O)N([O-])CCCCCN.[89Zr+4]	radio-iTLC	aqueous buffer	initial, pH 5.5, 37 °C, EDTA challenge, together with: 100-fold excess EDTA		intact complex	99.1 ± 0.2%
N=C(N)NCCC[C@@H]1NC(=O)[C@H](Cc2c[nH]c3ccccc23)NC(=O)[C@@H](CC2CCCCC2)NC(=O)[C@@H]2CCCN2C(=O)[C@@H](NC(=O)CCc2ccccc2)CCCNC1=O		C57BL/6J mice, brain	subcutaneous, 1 mg/kg		elimination half-life	0.548 h
C[Si]1(C[C@H](CN)CC(=O)O)CCCC1	neuromuscular coordination	Wistar rat male	oral, 100 mg/kg, 1 h		performance time	180 s
CC(=O)OC[C@H]1O[C@@H](Sc2sc(C(=O)c3ccc(C)cc3)c(N)c2-c2nc3ccccc3s2)[C@H](OC(C)=O)[C@@H](OC(C)=O)[C@H]1OC(C)=O		DMEM	72 h, coxsackievirus B4 assay host cells		maximum nontoxic concentration	100 µg/mL
